Results pooled from the literature.
A part holds a random share of what one study measured. Changes are numbered by the printed parent chain.

Sample 1
Target: Histone acetyltransferase KAT6A, both winged helices, GST fusion (KAT6A, Homo sapiens, UniProt Q92794, residues 1-181)
Method: protein binding microarray
Form: double-stranded DNA, one strand shown
Matrix: in vitro
Concentration: not given
Setting: 8-mer, flanks averaged, mean of 2 arrays, mostly near background
Baseline: not given
Direction: higher = stronger binding
Construct (chain): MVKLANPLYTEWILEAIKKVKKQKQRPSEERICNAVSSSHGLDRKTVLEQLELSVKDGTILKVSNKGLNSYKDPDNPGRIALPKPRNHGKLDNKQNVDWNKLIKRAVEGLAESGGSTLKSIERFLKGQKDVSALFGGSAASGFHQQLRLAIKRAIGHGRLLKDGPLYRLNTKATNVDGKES
Strand	E-score
GAGGCGCA	0.178
CAACACAC	-0.147
ATGGACCC	0.0195
ATACAATC	-0.0783
TGACAGAA	-0.0581
CCTTCATA	-0.0551
AGATGAAA	-0.0392
AAAACGGG	0.231
AAGTTACA	-0.182
GCGGCCTA	0.208
AAGGATAG	-0.213
CTTTAAAA	-0.0889
GTCTCTCA	-0.0183
GACGTACA	-0.047
ACTATGAG	-0.227
CGTCTGAA	-0.026
GCTAAGCA	0.0708
AACATGTT	0.00056
AGAAATTC	0.0342

Sample 2
Target: RING finger protein unkempt homolog, zinc fingers 1-6, SBP tag (UNK, Homo sapiens, UniProt Q9C0B0, residues 30-357)
UniProt Q9C0B0, sequence (30-357, looked up): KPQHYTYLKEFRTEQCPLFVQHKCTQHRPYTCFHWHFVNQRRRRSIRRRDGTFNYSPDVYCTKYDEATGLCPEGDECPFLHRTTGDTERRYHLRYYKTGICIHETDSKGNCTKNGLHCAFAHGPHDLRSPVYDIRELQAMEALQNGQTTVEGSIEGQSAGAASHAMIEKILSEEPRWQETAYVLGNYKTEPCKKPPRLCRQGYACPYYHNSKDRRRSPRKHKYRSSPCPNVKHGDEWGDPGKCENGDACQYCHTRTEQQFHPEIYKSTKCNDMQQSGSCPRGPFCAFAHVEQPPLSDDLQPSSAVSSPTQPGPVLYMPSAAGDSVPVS
Method: RNA Bind-n-Seq
Form: RNA
Matrix: in vitro
Concentration: 100 nM
Setting: RNA with constant flanks, vertebrate orthologous sites, ends assumed
Baseline: input RNA pool
Direction: higher = stronger binding
All sequences stand within: GGGAGUUCUACAGUCCGACGAUC … CAACAGAGGAUUGAGCAUCA
Strand	bound/input enrichment [ratio]
GACCUCCUGAACUUCUAACUUUCAAGCUGUGGCUGUUUUAGAUACUGGUUUUAUUUUCUUUACAAUUUUCCUGCCUUUCUUCCCCUGUUCCCAAGGUUUGACUCAUGGAUCUUACUCUUC	2.81
UCUUAUACUUAAACUGGUAUUUUCAAACAAUAGGAACCUAUUUUUCUUUUCUACAGUUUAGUGUGUAUCCGGCUUAUACAUGGAAGACUAAAAUGUUGAUUUGCUAAGUGUGGUCUUUGC	0.351
UCCUCAACUUGUUCUAGCUUGUGAUCCUUCAAAGUUGGGUCAGGCAUUAAUGCUAGGUACUAGAAAUUUUCAUUUCUCUAUUGCCAUUGAUCAGAGAGACAGGCAUGAAAAACAGGAAUA	0.241
UUGUUUUGUACGGGGCAUUCUCUGUACUAAUUUGUUGUGGUUAUAAAACAACUAGCAAAACAGCUUACAUUUGUAUUUAUUUUCUAUUCCAUACCUUUCUGCCCCAUGUUUUUCCUCCUC	0.534
GAGCUAAAGAAGUUAGCAUCUUUAUUUUUGUAUCAAAGAUAAAGGUUAUUUUGAAAUUAUUAGGAUUUUUACACAACGCUGAAGUCUGUUGCUUUUGUAAACAAAUUGUUUGAUCUUAGG	1.52
CUGCAGGAAUGGCCCCGUCGCGCCUGUUUAUUCUGUAAACUACAGCCUGUAAAUAACAUUUAGCAUUCCUAUUGUAACAGAAUUAAUUUUUAUGAAAUAAAUUAUAUUUCCUAGUCUAAU	0.421
UCUCAUGCCUCCACUGUGAGGGAGAGUGGGGGAAGCUGGAUGACCCUCAGCUGUUCCAGUUUUUUUUUUCUUUUUUAAAAAAUUAGUGUAUUUAUUAUGACGAUGGUGACUCCCCCGUGC	1.36
GAACACUGAAAAGACUUCCAUGCUUAUGUUAAAUGCUAAAAGUUAAGCUGCAGUAUAUUAGUAAAUAAUUACUUUAUUUCUGCAGUAUGGUUUGCUUUUUUAAAGUCAGACAGUAGACAG	0.589
ACAGGAGCAGCAUAGGCUGUUUGAGCUUUGGGGAAAUGAGCUUUGCUUUUUAUAUUUAACUAGGAUACUUUUAUAUGAUGGGUGCUUUGAGUGUGAAUGCAGCAGCCUCUCUUGUUUCCG	1.63
CAUGUCCUGGUUACUGUGAUAGUUAAAAUAUCCACAGUACUCAUUUUUUCCAAAUGAUUCUAGUAAUUGCCUAGAAAUAUCUUUCUCUUACCUGUUAUUUAUCAAUUUUUCCCAGUAUUU	1.43
AUUUUUUAAAGUUUUUUUAAUUUAAUUUUUCCUUUUGGGGGUAAAGUUUGCUCUACCAAAUAGUGAUCGUAACAAAUGAUCUGUUUUGGAUGUUGCUAUAGUGACAUGCAGUUAUAUAUU	0.368

Sample 3
Target: PABPC1L2, full length, GST fusion (mouse, UniProt A0ABA7IW68)
Method: RNAcompete
Form: RNA
Matrix: in vitro
Concentration: 20 nM
Setting: 7-mer, probes averaged, single round
Baseline: mean of 7-mers
Direction: higher = stronger binding
Construct (chain): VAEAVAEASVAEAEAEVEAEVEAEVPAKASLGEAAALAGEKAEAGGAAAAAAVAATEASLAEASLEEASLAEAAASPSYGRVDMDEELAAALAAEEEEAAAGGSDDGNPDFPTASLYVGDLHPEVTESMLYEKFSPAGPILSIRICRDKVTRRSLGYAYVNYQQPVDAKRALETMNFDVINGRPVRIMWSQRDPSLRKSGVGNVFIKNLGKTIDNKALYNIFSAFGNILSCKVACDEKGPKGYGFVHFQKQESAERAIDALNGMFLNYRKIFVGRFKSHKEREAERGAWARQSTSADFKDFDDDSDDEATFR
Strand	7-mer Z-score
GACCGCU	-0.204
AUAACCC	-0.18
CCGCUUC	-0.353
ACAGUGU	-0.0482
UAUCGCA	-0.318
GGACAAA	1.72
AGUCACC	-0.233
AUUGGUU	-0.242
UUAAAUC	0.164
CUUGGAC	-0.0301
CAGAAUG	-0.106
CAGUUUU	-0.322
ACCAUAU	-0.0627
UGAACCC	-0.26
UCAGAGC	-0.213
CGAGGCG	-0.0156
UACGUCU	-0.34
UCAAGUG	-0.193
AGGCCAG	0.075
AUUUAAG	0.253

Sample 4
Target: Interferon regulatory factor 7, full length, phosphomimetic (IRF7, Homo sapiens, UniProt Q92985, residues 1-503, S471D/S472D/S475D/S476D/S477D/S483D/S484D/S487D)
Method: protein-binding microarray
Form: double-stranded DNA, one strand shown
Matrix: in vitro
Concentration: 2200 nM top
Setting: 60-bp whole probe
With: salmon DNA 0.4 mg/ml
Baseline: random background probes
Direction: higher = stronger binding
All sequences stand within: GCCTAGCAC … GTCTTGATTCGCTTGACGCTGCTG
Residues (chain): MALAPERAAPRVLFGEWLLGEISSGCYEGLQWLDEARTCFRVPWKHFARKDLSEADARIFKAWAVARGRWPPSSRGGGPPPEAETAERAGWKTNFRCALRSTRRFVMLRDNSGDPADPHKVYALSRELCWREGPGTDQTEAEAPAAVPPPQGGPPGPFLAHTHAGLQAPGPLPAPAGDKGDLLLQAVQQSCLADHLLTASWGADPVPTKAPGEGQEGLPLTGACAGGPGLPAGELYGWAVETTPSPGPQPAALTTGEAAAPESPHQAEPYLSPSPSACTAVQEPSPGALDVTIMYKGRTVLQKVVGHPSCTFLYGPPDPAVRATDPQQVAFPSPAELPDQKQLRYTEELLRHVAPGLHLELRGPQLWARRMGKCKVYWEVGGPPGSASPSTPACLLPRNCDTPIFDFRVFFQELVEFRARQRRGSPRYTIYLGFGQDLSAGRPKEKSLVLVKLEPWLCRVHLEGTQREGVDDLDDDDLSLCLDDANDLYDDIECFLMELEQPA
Strand	fitted relative affinity [z-score]
GACGAATTGGGGACTGGAGACGTGCTA	-0.19
GACGGACTGGGTCTCGGGAAGTGCTAG	-0.88
TTAGGTTTCGGGTATCGATTAGTGCTA	5.97
GACGATCTCAGTCTCGAGGCGTGCTAG	0.652
TTAGATCTCAGTCTCGCTTAGTGCTAG	0.485
TCAAAAATCCCATTAAAACTGTGCTAG	-0.622
GACGGACTGTTACTGCTGACGTGCTAG	0.371
TTAGGACTGGGGACTGAGTTAGTGCTA	-0.786
GACGAACTGGGGACTGGAGAAGTGCTA	-0.0566
TGTTCATTTTCAAAACTGTTGTGCTAG	1.5
GACGGTATCGGTTACGGGACGTGCTAG	0.237
TTAGGTTTCGACTATCGTTTAGTGCTA	3.33
GACGATTTCCGTATCGAGACGTGCTAG	2.03
GACGATCTCAGTATGGAGACGTGCTAG	-0.37
GACGGACTGGACTATGGGGACGTGCTA	-0.839
TTAAGTTTCCTTCTCCTTTAGTGCTAG	2.8
TCAAGTCTGCAACATGGGACTGTGCTA	-0.313
TTTGAACTGAGTATCGATTAGTGCTAG	-0.0211
GACGGTTTCCTTATCCTGTCGTGCTAG	3.4
TCAGCTTTCCAATTCTCACTGTGCTAG	3.17
GACGGTTTCGACTTGCGGGACGTGCTA	8.85
TTAAATTTCAGACTGGATTAGTGCTAG	-0.254
GACGGTTCCCTTTTGCTGACGTGCTAG	2.76
TTCGATATCAGTTTCGATTAGTGCTAG	5.91
CCCATTCTGAATTCGAATGCGTGCTAG	1.82

Sample 5
Target: ABI1, truncated, D143A, DHFR fusion (Arabidopsis thaliana)
Method: DHFR PCA, deep sequencing
Matrix: yeast
Setting: methotrexate growth selection, single substitutions
With: (+)-ABA 0.39 µM
Baseline: wild-type fitted maximum
Direction: higher = stronger binding
Starting sequence: PYL1, truncated, DHFR fusion (Arabidopsis thaliana); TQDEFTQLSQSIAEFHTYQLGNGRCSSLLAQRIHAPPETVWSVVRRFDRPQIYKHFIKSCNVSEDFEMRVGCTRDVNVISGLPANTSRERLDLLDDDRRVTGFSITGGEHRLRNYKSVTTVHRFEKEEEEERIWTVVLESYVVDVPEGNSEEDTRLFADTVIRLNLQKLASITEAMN
Change	relative binding score [%]
T173A	43.7
C25T	56.7
I33C	6.23
T160I	-17.9
G81H	-9.71
A84W	98.9
F5Q	24.7
R111N	4.26
T6Y	36
T86M	30.7
E67H	13.9
K54C	-9.29
H122I	-12.2

Sample 6
Target: Sal-like protein 4, full length isoform A (SALL4, Homo sapiens, UniProt Q9UJQ4, residues 1-1053)
UniProt Q9UJQ4, sequence (whole entry, looked up): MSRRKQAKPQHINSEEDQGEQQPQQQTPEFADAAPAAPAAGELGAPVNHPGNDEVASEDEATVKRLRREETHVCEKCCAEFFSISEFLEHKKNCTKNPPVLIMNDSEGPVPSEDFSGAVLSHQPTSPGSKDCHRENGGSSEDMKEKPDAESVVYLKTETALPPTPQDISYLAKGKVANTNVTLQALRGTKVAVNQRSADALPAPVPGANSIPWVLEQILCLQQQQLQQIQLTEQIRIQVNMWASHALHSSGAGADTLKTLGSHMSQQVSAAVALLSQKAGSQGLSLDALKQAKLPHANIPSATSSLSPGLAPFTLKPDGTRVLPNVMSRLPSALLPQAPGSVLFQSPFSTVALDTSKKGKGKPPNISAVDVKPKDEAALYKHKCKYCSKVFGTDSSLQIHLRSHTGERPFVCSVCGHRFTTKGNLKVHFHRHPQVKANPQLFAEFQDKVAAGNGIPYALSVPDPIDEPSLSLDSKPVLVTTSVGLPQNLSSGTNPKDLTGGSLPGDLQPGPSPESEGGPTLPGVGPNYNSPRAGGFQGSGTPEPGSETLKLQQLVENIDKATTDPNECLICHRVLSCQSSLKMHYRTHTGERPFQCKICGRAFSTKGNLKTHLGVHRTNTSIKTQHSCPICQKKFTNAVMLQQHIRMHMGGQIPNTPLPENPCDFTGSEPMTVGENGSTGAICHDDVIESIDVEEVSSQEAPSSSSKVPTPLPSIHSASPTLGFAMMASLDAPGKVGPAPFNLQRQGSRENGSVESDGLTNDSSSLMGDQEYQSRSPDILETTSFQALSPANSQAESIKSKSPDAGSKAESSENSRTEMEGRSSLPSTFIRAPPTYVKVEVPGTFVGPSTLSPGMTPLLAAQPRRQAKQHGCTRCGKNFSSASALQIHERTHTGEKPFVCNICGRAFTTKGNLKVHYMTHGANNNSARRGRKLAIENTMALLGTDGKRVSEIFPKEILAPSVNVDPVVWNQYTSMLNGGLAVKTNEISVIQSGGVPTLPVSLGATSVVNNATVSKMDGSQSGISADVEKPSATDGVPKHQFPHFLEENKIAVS
Method: universal PBM
Form: double-stranded DNA, one strand shown
Matrix: in vitro
Concentration: 600 nM
Setting: 8-mer, flanks averaged, mean of replicates
Direction: higher = stronger binding
Strand	E-score
GCCACGCC	-0.34
CTGTCGGA	-0.0851
CCTTGGTC	-0.247
AGAACCAT	0.119
CGATTATC	0.0951
GTCGCCGA	-0.238
GACCCTCC	-0.307
AGAGAACG	0.0258
ACGTCAAC	0.0659
CGTGGGAC	-0.293
AGGCGGCG	-0.308
CTCCAGCA	-0.0641
GACCCTGA	-0.25
ATTGGCTC	0.12
CGAAAGTA	0.0773
CCGTCCTC	-0.153
GGTGGGGA	-0.187
AGCGGGAC	-0.313
GATAATGA	0.294
AAGGTACA	0.103
TCCTCTAA	0.0584
CGCAGCCG	-0.283
GCCGCGCC	-0.367
GAACTTGC	-0.0661

Sample 7
Target: CCNA2, cyclin fold, Cln2 fusion (human)
Method: yeast growth competition, sequencing
Matrix: yeast
Setting: weak parent motif
Baseline: not given
Direction: higher = stronger binding
Starting sequence: E2F7 docking peptide (human); SSAQRRLEIPSGG
Change	normalised enrichment score
SSAQRRLEIPSAG [G12A]	0.253
SSAARRLEIPSGG [Q4A]	1.09
SSAQKRLEIPSGG [R5K]	-0.0827
SSAQRRLAIPSGG [E8A]	0.762
SSAQRRLEIPAGG [S11A]	0.289
SSAQARLEIPSGG [R5A]	0.295
SSAQKRLELPSGG [R5K I9L]	0.429
ASAQRRLEIPSGG [S1A]	0.996

Excerpt of the above (sample 1):
Strand	E-score
ATACAATC	-0.0783
TGACAGAA	-0.0581
CCTTCATA	-0.0551
AGATGAAA	-0.0392
AAAACGGG	0.231
AAGTTACA	-0.182
GCGGCCTA	0.208
AAGGATAG	-0.213
CTTTAAAA	-0.0889
GTCTCTCA	-0.0183
GACGTACA	-0.047
ACTATGAG	-0.227
CGTCTGAA	-0.026
GCTAAGCA	0.0708
